{"data": "Measured values gathered from unrelated publications", "B1": "ASB9 35-252 (Homo sapiens, UniProt Q96DX5); sequence looked up; chain SDWSPMHEAAIHGHQLSLRNLISQGWAVNIITADHVSPLHEACLGGHLSCVKILLKHGAQVNGVTADWHTPLFNACVSGSWDCVNLLLQHGASVQPESDLASPIHEAARRGHVECVNSLIAYGGNIDHKISHLGTPLYLACENQQRACVKKLLESGADVNQGKGQDSPLHAVARTASEELACLLMDFGADTQAKNAEGKRPVELVPPESPLAQLFLER", "B2": "JUN (Homo sapiens, UniProt P05412); sequence looked up; chain MTAKMETTFYDDALNASFLPSESGPYGYSNPKILKQSMTLNLADPVGSLKPHLRAKNSDLLTSPDVGLLKLASPELERLIIQSSNGHITTTPTPTQFLCPKNVTDEQEGFAEGFVRALAELHSQNTLPSVTSAAQPVNGAGMVAPAVASVAGGSGSGGFSASLHSEPPVYANLSNFNPGALSSGGGAPSYGAAGLAFPAQPQQQQQPPHHLPQQMPVQHPRLQALKEEPQTVPEMPGETPPLSPIDMESQERIKAERKRMRNRIAASKCRKRKLERIARLEEKVKTLKAQNSELASTANMLREQVAQLKQKVMNHVNSGCQLMLTQQLQTF", "B3": "UGT1A9 (Homo sapiens, UniProt O60656); chain GKLLVVPMDGSHWFTMRSVVEKLILRGHEVVVVMPEVSWQLGRSLNCTVKTYSTSYTLEDLDREFKAFAHAQWKAQVRSIYSLLMGSYNDIFDLFFSNCRSLFKDKKLVEYLKESSFDAVFLDPFDNCGLIVAKYFSLPSVVFARGILCHYLEEGAQCPAPLSYVPRILLGFSDAMTFKERVRNHIMHLEEHLLCHRFFKNALEIASEILQTPVTEYDLYSHTSIWLLRTDFVLDYPKPVMPNMIFIGGINCHQGKPLPMEFEAYINASGEHGIVVFSLGSMVSEIPEKKAMAIADALGKIPQTVLWRYTGTRPSNLANNTILVKWLPQNDLLGHPMTRAFITHAGSHGVYESICNGVPMVMMPLFGDQMDNAKRMETKGAGVTLNVLEMTSEDLENALKAVINDKSYKENIMRLSSLHKDRPVEPLDLAVFWVEFVMRHKGAPHLRPAAHDLTWYQYHSLDVIGFLLAVVLTVAFITFKCCAYGYRKCLGKKGRVKKAHKSKTH", "B4": "PNPLA3 (Homo sapiens, UniProt Q9NST1); chain MYDAERGWSLSFAGCGFLGFYHVGATRCLSEHAPHLLRDARMLFGASAGALHCVGVLSGIPLEQTLQVLSDLVRKARSRNIGIFHPSFNLSKFLRQGLCKCLPANVHQLISGKIGISLTRVSDGENVLVSDFRSKDEVVDALVCSCFIPFYSGLIPPSFRGVRYVDGGVSDNVPFIDAKTTITVSPFYGEYDICPKVKSTNFLHVDITKLSLRLCTGNLYLLSRAFVPPDLKVLGEICLRGYLDAFRFLEEKGICNRPQPGLKSSSEGMDPEVAMPSWANMSLDSSPESAALAVRLEGDELLDHLRLSILPWDESILDTLSPRLATALSEEMKDKGGYMSKICNLLPIRIMSYVMLPCTLPVESAIAIVQRLVTWLPDMPDDVLWLQWVTSQVFTRVLMCLLPASRSQMPVSSQQASPCTPEQDWPCWTPCSPKGCPAETKAEATPRSILRSSLNFFLGNKVPAGAEGLSTFPSFSLEKSL", "note": "Protocols differ between the studies behind these lines. ± marks the error that the study gave. Square brackets hold non-standard residues; d marks the D form. Ends that are not written are not given here."}
{"Molecule": "HDAC6 (Homo sapiens, UniProt Q9UBN7)", "target or system": "PPP1R12A (Homo sapiens, UniProt O14974)", "assay": "MYPT1 coimmunoprecipitated with MLC, competitor, co-IP", "test system": "HFF lysate", "how to read": "reference: control, higher = more MYPT1 pulled down", "measurement": "relative binding", "value": 0.87}
{"Molecule": "cyp102A1 flavin reductase domain (Bacillus megaterium)", "target or system": "CYP3A4 del3-12 (Homo sapiens, UniProt P08684)", "assay": "BMR-dependent reduction", "test system": "nanodiscs", "setting": "with: ANF", "measurement": "slow phase rate constant", "value": "0.0032 s⁻¹"}
{"Molecule": "B1 (ASB9 35-252)", "target or system": "CKB 1-381 (UniProt P12277)", "assay": "SPR", "setting": "pH 8.0, NaCl 200 mM, Langmuir model", "measurement": "koff", "value": "0.0035 s⁻¹"}
{"Molecule": "B2 (JUN)", "target or system": "PAGE4, Alexa Fluor 555 at C63 (Homo sapiens, UniProt O60829)", "assay": "ensemble fluorescence", "how to read": "reference: before adding c-Jun, higher = brighter after c-Jun", "measurement": "quantum yield ratio", "value": 1.24}
{"Molecule": "B3 (UGT1A9)", "target or system": "O=c1c(O)c(-c2ccccc2O)oc2cc(O)cc(O)c12", "assay": "steady-state kinetics", "setting": "pH 7.4, 37 °C", "measurement": "Km", "value": "2.46 µM"}
{"Molecule": "H[dS]QGTFTSDYSKYLDSCRAQDFVCWLMNTKRNRNNIA-NH2 (oxyntomodulin analog R17C/Q24C, D-Ser2, C-terminal amide; cysteine pairing not given here; D-Ser2, C-terminal amide)", "target or system": "GCGR (Homo sapiens, UniProt P47871)", "assay": "CRE luciferase reporter, agonist", "test system": "peptide, HEK293", "measurement": "EC50", "value": "0.03 µM"}
{"Molecule": "FKBP1A (Homo sapiens, UniProt P62942)", "target or system": "RYR1, pS2843 (UniProt P11716)", "assay": "single-channel gating", "test system": "planar lipid bilayers", "measurement": "open time", "value": "1.6 ms"}
{"Molecule": "GSN A551P (Homo sapiens)", "target or system": "actin, pyrene label (Oryctolagus cuniculus, UniProt P68135)", "assay": "F-actin severing, fluorimetric pyrene-actin assay", "setting": "20 °C, without Ca2+, with: GSN 0.25 µM", "measurement": "depolymerization rate", "value": "1.1 h⁻¹"}
{"Molecule": "SNRPB2 (Homo sapiens, UniProt P08579)", "target or system": "SNRPA1 1-180 (Homo sapiens, UniProt P09661)", "assay": "ITC", "setting": "KCl 250 mM", "measurement": "ΔH", "value": "-306 kJ/mol"}
{"Molecule": "EPB41 fragment (Homo sapiens)", "target or system": "SLC9A1 residues 506-575 (Rattus norvegicus)", "assay": "resonant mirror", "setting": "kinetic analysis", "measurement": "koff", "value": "0.0095 s⁻¹"}
{"Molecule": "NOTCH2NLB (Homo sapiens, UniProt P0DPK3)", "target or system": "NOTCH2 (Homo sapiens, UniProt Q04721)", "assay": "NOTCH2-GAL4 reporter", "setting": "24 hours, conditioned medium", "how to read": "reference: empty-vector medium, higher = more activation", "measurement": "reporter activity", "value": "22%"}
{"Molecule": "B4 (PNPLA3)", "target or system": "ABHD5 (Homo sapiens, UniProt Q8WTS1)", "assay": "FCCS", "test system": "transfected cells", "setting": "in cells, with: oleic acid", "how to read": "higher = more complexes", "measurement": "cross-correlation fraction", "value": "0.32 ± 0.04"}
